Results collected from several papers.
Compare with care: the assays were run in different laboratories.
Route: oral

Cc1ccc([C@@H]2O[C@H](CO)[C@@H](O)[C@H](O)[C@H]2O)cc1Cc1ccc(-c2ccc(F)cc2)s1  tmax (human, maintenance hemodialysis patients; 300 mg once daily, steady state, median): 1.5 h
C[C@H](O)c1cc(C(=O)N[C@@H](C)Cn2ccc(-c3ccc(C#N)c(Cl)c3)n2)n[nH]1  tmax (human, fasted; 300 mg 14C-darolutamide solution, median): 3 h
O=C(COc1ccc(Cl)cc1)NC12CC(c3nnc([C@H]4C[C@@H](OC(F)(F)F)C4)o3)(C1)C2  tmax (healthy human both sexes, plasma; 200 mg once daily, day 1, median fasted): 23.8 h
CNC(=O)n1ccc2cc(Oc3ccnc(NC(=O)c4ccc(C5CCN(CCO)CC5)cc4)c3)c(OCCOC)cc21  tmax (healthy human, plasma; 35 mg, median, alone): 4 h
COc1cc(N2CCC(N3CCN(C)CC3)CC2)ccc1Nc1ncnc(Nc2ccccc2S(=O)(=O)C(C)C)n1  tmax (human, plasma; 200 mg, day 1): 2.29 h
CN(C(=O)C(C)(C)c1cc(C(F)(F)F)cc(C(F)(F)F)c1)c1cnc(N2C[C@H]3COCCN3C[C@H]2CO)cc1-c1ccc(F)cc1[14CH3]  tmax (item: total radioactivity; human, whole blood; 120 mg): 2 h
CC(=O)c1cc(C(=O)N[C@@H](C)Cn2ccc(-c3ccc(C#N)c(Cl)c3)n2)[nH]n1  tmax (human, fasted; 300 mg 14C-darolutamide solution, median): 1.5 h
O=C(Nc1cnccc1Cl)N1CCN(Cc2ccc3c(c2)OC(F)(F)O3)CC1  tmax (human healthy young women, plasma; 100 mg once daily, day 10, multiple dose median): 1 h
Cc1cc(Nc2ccc(S(F)(F)(F)(F)F)cc2)n2nc(C(C)(F)F)nc2n1  tmax (LC-MS/MS; human vivax malaria patients, plasma; 800 mg, median): 10.1 h
N#Cc1ccc2c(c1)[C@H]1CCCN(C(=O)c3ccc4[nH]cnc4c3)[C@H]1C2  tmax (human, plasma; 80 mg once daily, after first dose, median): 1 h
COc1ccc(F)cc1C(=O)NCc1ccc(-c2nn([C@@H](C)C(F)(F)F)c(N)c2C(N)=O)cc1  tmax (human, plasma; 200 mg once daily, with: oral repaglinide): 1 h

Excerpt of the above:
N#Cc1ccc2c(c1)[C@H]1CCCN(C(=O)c3ccc4[nH]cnc4c3)[C@H]1C2  tmax (human, plasma; 80 mg once daily, after first dose, median): 1 h
